Experimental data pooled from the literature.
Each numbered part is a random draw from the data of one study; scales do not carry over between parts. Positions count from the first letter of the parent shown.
UniProt P08172, sequence (whole entry, looked up): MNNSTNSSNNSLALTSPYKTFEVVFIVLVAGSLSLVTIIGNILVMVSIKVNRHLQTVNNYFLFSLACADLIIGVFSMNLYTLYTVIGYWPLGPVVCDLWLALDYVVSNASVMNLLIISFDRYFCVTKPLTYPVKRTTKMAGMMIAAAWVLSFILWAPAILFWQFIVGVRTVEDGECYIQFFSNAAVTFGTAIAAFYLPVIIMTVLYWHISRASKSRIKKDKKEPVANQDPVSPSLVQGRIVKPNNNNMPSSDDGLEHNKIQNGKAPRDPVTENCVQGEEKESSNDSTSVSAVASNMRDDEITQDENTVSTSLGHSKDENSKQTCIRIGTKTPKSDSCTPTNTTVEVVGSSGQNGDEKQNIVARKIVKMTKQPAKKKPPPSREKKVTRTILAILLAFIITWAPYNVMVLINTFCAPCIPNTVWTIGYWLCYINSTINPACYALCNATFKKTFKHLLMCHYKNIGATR

Series 1
Target: CCND2, cyclin fold, Cln2 fusion (human)
Method: yeast growth competition, sequencing
Matrix: yeast
Setting: weak parent motif
Reference: not given
Reading: higher = stronger binding
Starting sequence: viral docking peptide; TSVRRALFTGGSD; partner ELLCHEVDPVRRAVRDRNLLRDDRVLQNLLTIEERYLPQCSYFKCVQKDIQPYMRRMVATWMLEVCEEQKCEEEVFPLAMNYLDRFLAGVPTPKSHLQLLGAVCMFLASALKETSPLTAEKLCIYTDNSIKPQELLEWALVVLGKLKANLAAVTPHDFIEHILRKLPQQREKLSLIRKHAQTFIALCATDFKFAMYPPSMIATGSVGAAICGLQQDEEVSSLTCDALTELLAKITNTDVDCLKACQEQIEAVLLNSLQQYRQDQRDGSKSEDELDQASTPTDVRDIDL
Variant | normalised enrichment score
T9M | -0.0839
G10K | -0.483
L7K | 0.0668
R4F | -0.404
G11Y | -0.234
G10S | 0.0228
G11H | -0.0306
G10Y | -0.118

Series 2
Target: UDP-N-acetylglucosamine--peptide N-acetylglucosaminyltransferase 110 kDa subunit (OGT, Homo sapiens, UniProt O15294)
UniProt O15294, sequence (whole entry, looked up): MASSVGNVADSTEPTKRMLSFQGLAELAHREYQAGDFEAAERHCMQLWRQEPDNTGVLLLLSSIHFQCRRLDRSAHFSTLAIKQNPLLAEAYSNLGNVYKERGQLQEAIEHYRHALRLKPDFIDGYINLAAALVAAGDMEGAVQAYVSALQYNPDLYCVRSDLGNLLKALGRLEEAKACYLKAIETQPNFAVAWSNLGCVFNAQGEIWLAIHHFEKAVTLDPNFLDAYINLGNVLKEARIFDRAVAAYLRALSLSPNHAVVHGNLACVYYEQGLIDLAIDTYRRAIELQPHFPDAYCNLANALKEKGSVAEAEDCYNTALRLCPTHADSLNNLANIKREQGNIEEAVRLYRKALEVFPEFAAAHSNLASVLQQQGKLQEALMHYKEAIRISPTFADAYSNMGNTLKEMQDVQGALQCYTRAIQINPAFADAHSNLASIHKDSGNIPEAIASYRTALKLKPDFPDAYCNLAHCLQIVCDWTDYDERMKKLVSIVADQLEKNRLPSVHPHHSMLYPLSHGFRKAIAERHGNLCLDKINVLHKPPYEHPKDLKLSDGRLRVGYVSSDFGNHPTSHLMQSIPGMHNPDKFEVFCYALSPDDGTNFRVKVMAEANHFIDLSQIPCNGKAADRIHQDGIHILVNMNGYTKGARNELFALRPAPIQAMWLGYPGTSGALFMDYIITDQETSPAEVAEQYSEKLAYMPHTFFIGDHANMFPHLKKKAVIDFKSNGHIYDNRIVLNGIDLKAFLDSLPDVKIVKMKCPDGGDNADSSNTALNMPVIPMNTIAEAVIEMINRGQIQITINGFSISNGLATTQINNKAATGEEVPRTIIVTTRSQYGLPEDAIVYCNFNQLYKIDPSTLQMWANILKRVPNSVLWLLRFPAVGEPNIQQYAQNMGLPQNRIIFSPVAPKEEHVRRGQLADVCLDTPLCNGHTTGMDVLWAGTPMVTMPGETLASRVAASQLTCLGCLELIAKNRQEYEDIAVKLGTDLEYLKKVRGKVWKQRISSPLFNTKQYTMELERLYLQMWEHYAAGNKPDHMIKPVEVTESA
Read-out: binding
Method: phage display NGS
Molecule type: peptide
Tested at: concentration not given
Setting: panning round 2
Reference: input library
Sequence | enrichment fold change
HVHGASPHSRNHSA | 6.13
TIAQQSRMMNHHSKH | 5.08
IVGAIFPPKYLITYA | 25.5
TWHGSYKYRQHYAQN | 4.87
MFMPHYQIIMSATES | 91.3
RMDHTQRPLWHQHHN | 6.68
QQFSKLFPPKYTIDF | 106
HIKWSTGWHHQGRT | 3.83

Series 3
Target: tungstate, free oxyanion
Method: microfluidic competitive inhibition
Matrix: in vitro, cell-free expressed
Tested at: not given
Setting: derived from inhibition constants, unchanged parent 2230 nM
Reading: lower = stronger binding
Starting sequence: PafA, mature enzyme, eGFP fusion (Elizabethkingia meningoseptica, UniProt Q9KJX5); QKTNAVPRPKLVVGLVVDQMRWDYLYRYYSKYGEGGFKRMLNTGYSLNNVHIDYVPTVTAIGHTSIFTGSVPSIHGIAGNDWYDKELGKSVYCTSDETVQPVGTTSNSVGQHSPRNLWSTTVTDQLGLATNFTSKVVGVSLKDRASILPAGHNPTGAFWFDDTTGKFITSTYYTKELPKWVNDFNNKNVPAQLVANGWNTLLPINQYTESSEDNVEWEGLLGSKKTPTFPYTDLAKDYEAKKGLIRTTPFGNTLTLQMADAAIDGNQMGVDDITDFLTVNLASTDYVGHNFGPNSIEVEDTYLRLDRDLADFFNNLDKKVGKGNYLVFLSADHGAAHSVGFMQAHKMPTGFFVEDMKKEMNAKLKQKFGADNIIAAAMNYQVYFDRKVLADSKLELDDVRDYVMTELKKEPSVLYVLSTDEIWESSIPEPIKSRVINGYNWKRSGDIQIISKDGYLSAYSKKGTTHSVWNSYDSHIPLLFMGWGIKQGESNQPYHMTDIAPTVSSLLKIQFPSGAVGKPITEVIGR
Variant | oxyanion analog dissociation constant
E299G | 2.13 µM
K409G | 2.19 µM
S106G | 1.94 µM
S211G | 2.29 µM
K452V | 1.99 µM
S46G | 2.01 µM
Y231G | 557 nM
L220G | 1.79 µM

Further values, each from its own experiment
SMILES | target | assay | quantity | value
COC(=O)c1cc(N(C)C(=O)c2ccn3ncc(-c4ccc(C(=O)O)cc4)c3c2)ccc1Cl | Muscarinic acetylcholine receptor M2 (CHRM2, Homo sapiens, UniProt P08172) | cell-free assay | IC50 | > 30 µM
